Assay results collected from several papers.
± marks the error that the study gave.
Mitogen-activated protein kinase 14: Mitogen-activated protein kinase 14 (Rattus norvegicus, UniProt P70618)
Sequence of UniProt P70618 (whole entry, looked up): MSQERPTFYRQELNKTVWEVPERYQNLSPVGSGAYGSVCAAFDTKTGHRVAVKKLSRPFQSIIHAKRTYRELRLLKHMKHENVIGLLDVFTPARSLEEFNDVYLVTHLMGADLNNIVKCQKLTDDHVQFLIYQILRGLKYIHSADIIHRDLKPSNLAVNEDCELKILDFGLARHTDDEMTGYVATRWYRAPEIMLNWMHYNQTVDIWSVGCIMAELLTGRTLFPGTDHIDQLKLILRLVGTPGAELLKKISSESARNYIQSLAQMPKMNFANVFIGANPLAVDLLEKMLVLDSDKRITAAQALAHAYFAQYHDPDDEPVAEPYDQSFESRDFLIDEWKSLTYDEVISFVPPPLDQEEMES
CYP2D6: Cytochrome P450 2D6 (CYP2D6, Homo sapiens, UniProt P10635)
CA2: Carbonic anhydrase 2 (CA2, Homo sapiens, UniProt P00918)
CTSL: Procathepsin L (CTSL, Homo sapiens, UniProt P07711)
Sequence of UniProt P07711 (whole entry, looked up): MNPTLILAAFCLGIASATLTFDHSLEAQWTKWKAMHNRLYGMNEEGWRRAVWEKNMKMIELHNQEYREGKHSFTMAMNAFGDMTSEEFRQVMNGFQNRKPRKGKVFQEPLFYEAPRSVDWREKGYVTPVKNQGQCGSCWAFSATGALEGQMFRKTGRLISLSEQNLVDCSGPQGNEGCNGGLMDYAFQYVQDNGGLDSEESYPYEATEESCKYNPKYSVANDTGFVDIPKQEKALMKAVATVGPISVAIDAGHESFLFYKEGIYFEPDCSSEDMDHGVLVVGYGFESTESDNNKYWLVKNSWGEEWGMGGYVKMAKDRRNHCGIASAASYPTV
uncharacterized protein: uncharacterized protein (Apis mellifera, UniProt A0A7M6W5G5)
Sequence of UniProt Q9UQ49 (whole entry, looked up): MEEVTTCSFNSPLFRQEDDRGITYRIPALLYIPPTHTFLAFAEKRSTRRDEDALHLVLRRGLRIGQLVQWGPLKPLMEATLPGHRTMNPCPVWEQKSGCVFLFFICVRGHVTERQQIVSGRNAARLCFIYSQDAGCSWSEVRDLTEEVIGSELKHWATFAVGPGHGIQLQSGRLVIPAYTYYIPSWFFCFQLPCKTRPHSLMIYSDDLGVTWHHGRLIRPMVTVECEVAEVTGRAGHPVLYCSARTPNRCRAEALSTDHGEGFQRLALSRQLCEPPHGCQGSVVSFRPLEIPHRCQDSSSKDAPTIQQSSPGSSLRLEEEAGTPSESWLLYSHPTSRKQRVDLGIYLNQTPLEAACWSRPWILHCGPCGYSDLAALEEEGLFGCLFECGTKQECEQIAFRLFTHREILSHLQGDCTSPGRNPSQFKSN
Sequence of UniProt P14618 (whole entry, looked up): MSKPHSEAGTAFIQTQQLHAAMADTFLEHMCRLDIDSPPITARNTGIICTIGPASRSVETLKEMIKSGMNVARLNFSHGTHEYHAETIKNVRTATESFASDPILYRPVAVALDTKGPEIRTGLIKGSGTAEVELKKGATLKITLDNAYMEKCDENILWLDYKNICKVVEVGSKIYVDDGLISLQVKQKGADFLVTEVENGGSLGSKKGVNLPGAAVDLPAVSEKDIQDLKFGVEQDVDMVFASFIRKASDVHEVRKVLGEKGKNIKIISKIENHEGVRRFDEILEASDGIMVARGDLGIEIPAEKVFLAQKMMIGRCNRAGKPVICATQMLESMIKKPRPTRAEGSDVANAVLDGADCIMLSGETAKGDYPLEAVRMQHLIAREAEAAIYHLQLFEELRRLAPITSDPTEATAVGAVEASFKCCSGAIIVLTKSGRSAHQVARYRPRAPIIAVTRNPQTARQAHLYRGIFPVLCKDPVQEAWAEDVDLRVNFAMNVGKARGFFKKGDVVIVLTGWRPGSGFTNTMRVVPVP
Sequence of UniProt P13631 (whole entry, looked up): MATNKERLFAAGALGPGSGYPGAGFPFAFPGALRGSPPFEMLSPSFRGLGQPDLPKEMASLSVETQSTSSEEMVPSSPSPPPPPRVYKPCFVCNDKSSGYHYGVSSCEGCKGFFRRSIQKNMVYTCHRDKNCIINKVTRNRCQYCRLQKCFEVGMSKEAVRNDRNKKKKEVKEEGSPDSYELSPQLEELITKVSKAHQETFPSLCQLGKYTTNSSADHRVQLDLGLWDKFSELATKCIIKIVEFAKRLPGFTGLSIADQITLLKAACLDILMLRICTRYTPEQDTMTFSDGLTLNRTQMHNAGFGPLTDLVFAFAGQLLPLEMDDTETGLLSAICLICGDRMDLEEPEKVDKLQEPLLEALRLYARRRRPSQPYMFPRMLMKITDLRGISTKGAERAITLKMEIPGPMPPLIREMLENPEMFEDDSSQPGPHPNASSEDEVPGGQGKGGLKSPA
Sequence of UniProt P16050 (whole entry, looked up): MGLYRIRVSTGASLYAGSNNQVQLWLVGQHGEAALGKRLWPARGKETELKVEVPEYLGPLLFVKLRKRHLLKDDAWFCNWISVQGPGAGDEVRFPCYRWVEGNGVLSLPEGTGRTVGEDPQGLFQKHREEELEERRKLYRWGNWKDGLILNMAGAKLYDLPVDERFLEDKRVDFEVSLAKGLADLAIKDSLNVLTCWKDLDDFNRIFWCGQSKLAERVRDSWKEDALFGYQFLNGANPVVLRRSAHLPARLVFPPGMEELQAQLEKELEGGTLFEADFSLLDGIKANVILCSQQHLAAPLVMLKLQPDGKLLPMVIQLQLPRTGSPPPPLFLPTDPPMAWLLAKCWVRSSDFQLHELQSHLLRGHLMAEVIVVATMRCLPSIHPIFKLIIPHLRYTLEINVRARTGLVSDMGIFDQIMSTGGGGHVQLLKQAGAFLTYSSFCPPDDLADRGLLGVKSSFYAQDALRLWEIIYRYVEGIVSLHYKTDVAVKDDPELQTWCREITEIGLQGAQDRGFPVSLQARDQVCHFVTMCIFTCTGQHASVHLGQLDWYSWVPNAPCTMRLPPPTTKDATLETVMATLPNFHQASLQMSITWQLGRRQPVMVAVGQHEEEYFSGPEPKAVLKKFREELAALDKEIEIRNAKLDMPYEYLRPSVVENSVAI
Sequence of UniProt P28335 (whole entry, looked up): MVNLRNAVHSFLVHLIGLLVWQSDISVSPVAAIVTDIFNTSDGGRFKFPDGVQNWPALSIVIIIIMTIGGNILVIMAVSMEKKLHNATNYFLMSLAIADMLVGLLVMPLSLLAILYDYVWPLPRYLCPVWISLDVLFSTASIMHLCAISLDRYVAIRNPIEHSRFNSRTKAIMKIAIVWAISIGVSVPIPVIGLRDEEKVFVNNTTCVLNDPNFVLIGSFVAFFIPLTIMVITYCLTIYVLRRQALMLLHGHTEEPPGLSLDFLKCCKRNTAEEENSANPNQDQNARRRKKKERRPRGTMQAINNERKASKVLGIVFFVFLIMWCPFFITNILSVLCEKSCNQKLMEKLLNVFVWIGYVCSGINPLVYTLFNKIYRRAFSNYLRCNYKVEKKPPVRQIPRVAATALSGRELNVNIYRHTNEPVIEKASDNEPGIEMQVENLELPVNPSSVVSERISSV
Sequence of UniProt P10613 (whole entry, looked up): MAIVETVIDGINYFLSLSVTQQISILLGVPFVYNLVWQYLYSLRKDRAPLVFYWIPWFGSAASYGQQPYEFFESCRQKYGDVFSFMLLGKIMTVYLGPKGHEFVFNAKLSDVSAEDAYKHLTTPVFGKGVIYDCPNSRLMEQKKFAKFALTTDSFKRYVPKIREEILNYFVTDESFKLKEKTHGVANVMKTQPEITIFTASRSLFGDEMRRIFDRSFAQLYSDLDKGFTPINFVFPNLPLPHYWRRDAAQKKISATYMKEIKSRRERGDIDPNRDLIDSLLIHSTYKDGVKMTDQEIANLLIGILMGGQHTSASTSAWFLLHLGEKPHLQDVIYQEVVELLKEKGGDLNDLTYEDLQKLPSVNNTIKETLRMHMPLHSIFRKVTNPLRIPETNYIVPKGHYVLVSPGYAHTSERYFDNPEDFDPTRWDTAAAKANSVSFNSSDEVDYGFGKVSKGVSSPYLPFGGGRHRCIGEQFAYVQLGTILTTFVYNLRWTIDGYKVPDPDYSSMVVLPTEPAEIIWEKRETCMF

`CC[C@H](C)[C@H](NC(=O)[C@H](CC(C)C)NC(=O)[C@@H]1CCCN1C(=O)[C@H](CCC(=O)O)NC(=O)[C@@H]1CCCN1C(=O)[C@H](CCCNC(=N)N)NC(=O)[C@@H]1CCCN1C(=O)[C@H](CCCNC(=N)N)NC(=O)[C@H](CCC(N)=O)NC(=O)[C@H](CCCCN)NC(=O)[C@@H]1CCCN1C(=O)[C@H](C)NC(=O)[C@@H](N)Cc1ccc(O)cc1)C(=O)N[C@H](C(=O)N1CCC[C@H]1C(=O)N[C@H](C(=O)O)[C@@H](C)O)[C@@H](C)CC` has an IC50 of 34.4 µM (Mitogen-activated protein kinase 14; enzyme activity, inhibitor, fluorescence; pH 7.4).
With `O=C(O)C(/C=C/c1ccc(Cl)cc1)=N\Nc1nc(-c2ccc(Br)cc2)cs1` the IC50 was 6.09 µM (Cholinesterase (BCHE, Equus caballus, UniProt P81908); enzyme activity, inhibitor).
With `Cc1nc(N2CCC(N(C)c3cc(C(=O)NCCN4CCCC4)cnn3)CC2)nc(C)c1CC(C)C` the IC50 was 5.97 µM (CYP2D6; enzyme activity, inhibitor).
With `CC(C)C[C@H](NC(=O)[C@H](CCCCN)NC(=O)[C@H](CCCCN)NC(=O)[C@H](CCCCN)NC(=O)[C@H](CCCCN)NC(=O)[C@@H]1CCCN1C(=O)[C@H](CCCNC(=N)N)NC(=O)[C@H](Cc1ccccc1)NC(=O)[C@H](CCCCN)NC(=O)[C@H](CCCCN)NC(=O)[C@H](C)NC(=O)[C@@H](N)Cc1ccc(O)cc1)C(=O)N[C@@H](CCCNC(=N)N)C(=O)N[C@@H](CC(C)C)C(=O)N[C@@H](CC(N)=O)C(=O)N1CCC[C@H]1C(=O)O` the IC50 was 1.97 µM (Mitogen-activated protein kinase 14; enzyme activity, inhibitor, fluorescence; pH 7.4).
The IC50 of `CSCC[C@H](NC(=O)[C@@H](NC(=O)[C@H](Cc1c[nH]cn1)NC(=O)CNC(=O)[C@H](Cc1c[nH]cn1)NC(=O)[C@@H]1CCCN1C(=O)[C@H](C)N)C(C)C)C(=O)N[C@H](C(=O)N[C@@H](CCC(=O)O)C(=O)N[C@@H](CC(C)C)C(=O)O)C(C)C` is reported as greater than 70 µM (HLA class I histocompatibility antigen, B alpha chain, allele B*18:01 (Homo sapiens, UniProt P01889); peptide-MHC binding, radioligand competition binding).
`CCOC(=O)c1ccccc1-c1c2ccc(=O)cc-2oc2cc(OCCCn3nnnc3C(NCc3ccccc3)c3ccc(Cl)cc3)ccc12` (centres unmarked) has an IC50 of 52.1 µM (Polyunsaturated fatty acid lipoxygenase ALOX15 (ALOX15, Homo sapiens, UniProt P16050); enzyme activity, inhibitor, absorbance).
The IC50 of `COC1c2cc(C(C)C)c(O)c(O)c2C23CCCC(C)(C)C2C1OC3=O` (centres unmarked) is reported as 0.00481 µM (CA2; enzyme activity, inhibitor).
`CC[C@H](C)[C@H](NC(=O)[C@@H](NC(=O)[C@H](CC(C)C)NC(=O)[C@H](CCCCN)NC(=O)[C@H](CCCCN)NC(=O)[C@H](Cc1c[nH]cn1)NC(=O)[C@@H](NC(=O)[C@H](CCCNC(=N)N)NC(=O)[C@H](CCCCN)NC(=O)[C@H](CC(C)C)NC(=O)[C@H](CCC(N)=O)NC(=O)[C@H](CCCCN)NC(=O)[C@H](C)NC(=O)[C@@H](N)Cc1ccc(O)cc1)[C@@H](C)O)[C@@H](C)O)C(=O)N[C@@H](CC(N)=O)C(=O)N1CCC[C@H]1C(=O)O` gave an IC50 of 36.4 µM (Mitogen-activated protein kinase 14; enzyme activity, inhibitor, fluorescence; pH 7.4).
For `O=C1NC2(CC2)COc2ncc(F)cc2[C@H]2COCCN2c2ccn3ncc1c3n2`, “organ-to-body weight ratio” read 0.014 ± 0.002% (Sprague-Dawley rat, male, adrenals; oral, 20 mg/kg/day, 4 weeks dosing, end of recovery).
With `CN(C)S(=O)(=O)c1ccc2nnn(OCc3cccc4ccccc34)c2c1` the IC50 was greater than 100 µM (CTSL; enzyme activity, inhibitor, FRET).
`CN(C)CCCN1C(=O)CSC1c1cccc(Cl)c1` (centres unmarked) gave an IC50 of 1.2 µM (uncharacterized protein; enzyme activity, inhibitor, Ellman; together with: 1 mM acetylthiocholine).
`NC(=O)CC[C@H](N)C(=O)N[C@@H](CC(N)=O)C(=O)N[C@@H](CC(=O)O)C(=O)N[C@@H](Cc1ccccc1)C(=O)O` gave an IC50 of roughly 171 µM (Angiotensin-converting enzyme (ACE, Homo sapiens, UniProt P12821); enzyme activity, inhibitor).
For `CC[C@H](C)[C@H](NC(=O)[C@H](CC(C)C)NC(=O)[C@@H]1CCCN1C(=O)[C@H](CCCNC(=N)N)NC(=O)[C@@H]1CCCN1C(=O)[C@H](CCCCN)NC(=O)[C@H](Cc1c[nH]cn1)NC(=O)[C@H](CCCNC(=N)N)NC(=O)[C@H](Cc1ccccc1)NC(=O)[C@H](CCCCN)NC(=O)[C@H](CCCCN)NC(=O)[C@H](C)NC(=O)[C@@H](N)Cc1ccc(O)cc1)C(=O)N[C@@H](CC(C)C)C(=O)N1CCC[C@H]1C(=O)N1CCC[C@H]1C(=O)O`, the IC50 was 5.01 µM (Mitogen-activated protein kinase 14; enzyme activity, inhibitor, fluorescence; pH 7.4).
`CC1(C)CC=C(c2ccccc2)c2cc(/C=C/c3ccc(C(=O)O)cc3)ccc21` has an IC50 of 0.0127 µM (Retinoic acid receptor gamma (RARG, Homo sapiens, UniProt P13631)).
The IC50 of `CCN(CC)S(=O)(=O)c1ccc2nnn(OCc3cc(-c4ccccc4OC)no3)c2c1` is reported as greater than 100 µM (CTSL; enzyme activity, inhibitor, FRET).
For `CC(C)C[C@H](NC(=O)[C@H](CCC(N)=O)NC(=O)[C@H](CC(N)=O)NC(=O)[C@H](C)NC(=O)[C@@H](N)Cc1ccc(O)cc1)C(=O)N[C@@H](CCCCN)C(=O)N[C@@H](Cc1ccccc1)C(=O)N[C@@H](CCCNC(=N)N)C(=O)N[C@@H](CCCCN)C(=O)N[C@@H](CCCCN)C(=O)N[C@@H](CCCCN)C(=O)N[C@@H](CC(C)C)C(=O)N[C@@H](CCCCN)C(=O)N[C@@H](Cc1ccccc1)C(=O)N[C@@H](CS)C(=O)N[C@@H](CCCCN)C(=O)O`, the IC50 was 0.247 µM (Mitogen-activated protein kinase 14; enzyme activity, inhibitor, fluorescence; pH 7.4).
`O=C(O)C1=C[C@H](O)[C@@H](NC(=O)c2ccc(-c3ccccc3)cc2)[C@H]([C@H](O)[C@H](O)CO)O1` gave an IC50 of greater than 500 µM (Sialidase-3 (Homo sapiens, UniProt Q9UQ49); enzyme activity, inhibitor).
With `C=CC(=O)Nc1cc(-c2nn(C3CCC(N4CCN(C(C)=O)CC4)CC3)c3ncnc(N)c23)ccc1Oc1ccccc1` (centres unmarked) the IC50 was 5.6 µM (Epidermal growth factor receptor (EGFR, Homo sapiens, UniProt P00533); enzyme activity, inhibitor, FRET).
The IC50 of `CNC(=O)C[C@H](Cc1ccncc1)NC(=O)[C@@H](Cc1cccc(Br)c1)NC(=O)[C@@H](N)Cc1ccsc1` is reported as greater than 10 µM (CTSL; enzyme activity, inhibitor).
The IC50 of `CN(C)CCCN1C(=O)CSC1c1ccc(F)cc1` (centres unmarked) is reported as 16 µM (uncharacterized protein; enzyme activity, inhibitor, Ellman; together with: 1 mM acetylthiocholine).
The IC50 of `CNc1nc(N[C@@H](CCO)c2ccccc2Cl)nc(N2CCN(C(=O)CCl)C(C(=O)NCC3CCNC3=O)C2)n1` (some centres unmarked) is reported as greater than 50 µM (CTSL; enzyme activity, inhibitor).
With `CCN1CCC[C@@H]1CNC(=O)c1cc([N+](=O)[O-])c(N(C)C)cc1OC` the IC50 was 19 µM (uncharacterized protein; enzyme activity, inhibitor, Ellman; pH 7.4, 30 °C, together with: 1 mM acetylthiocholine).
`O=S(=O)(N/N=C/c1ccc(OS(=O)(=O)c2ccccc2)cc1)c1cc(Cl)ccc1Cl` gave an IC50 of 0.0488 µM (CA2; enzyme activity, inhibitor, absorbance).
The IC50 of `O=C(CCc1ccc(Br)cc1)N[C@H]1CCOC1=O` is reported as 4.14 µM (Transcriptional activator protein LasR (lasR, Pseudomonas aeruginosa, UniProt P25084); reporter gene, antagonist; Escherichia coli, JLD271 with LasR plasmid; together with: OdDHL 50 nM).
With `COC(=O)c1ccc(COC(CN2CCN(C(=O)NCc3ccc(OC)cc3)CC2)c2ccc(Cl)cc2)cc1` (centres unmarked) the IC50 was 1.79 µM (Lanosterol 14-alpha demethylase (ERG11, Candida albicans, UniProt P10613); enzyme activity, inhibitor, mass spectrometry).
The IC50 of `CC(C)C[C@H](NC(=O)[C@H](CS)NC(=O)[C@H](C)N)C(=O)N1CCC[C@H]1C(=O)N[C@@H](Cc1ccccc1)C(=O)N[C@@H](Cc1ccc(O)cc1)C(=O)N[C@@H](CO)C(=O)N[C@@H](CCCNC(=N)N)C(=O)N[C@@H](CS)C(N)=O` is reported as 709 µM (Pyruvate kinase PKM (PKM, Homo sapiens, UniProt P14618); enzyme activity, inhibitor, fluorometric; 2 h, 37 °C, enzyme 500 nM).
With `CC(C)CN(CCCC[C@H](NC(=O)[C@H](CCCN1CCOCC1)NC(=O)[C@@H](NC(=O)[C@H](Cc1ccccc1)NC(=O)c1ccc(C(C)(C)C)cc1)C1CCC1)C(=O)N[C@@H](CO)C(N)=O)C1CC2CCC1C2` (some centres unmarked) the IC50 was 6.6 µM (Chromobox protein homolog 7 (Homo sapiens, UniProt O95931); ligand displacement, TR-FRET).
`Cc1ccc2c(n1)c(-c1cccc(S(C)(=O)=O)c1)c(C)n2C/C(F)=C/CN` has an IC50 of 6.72 µM (CYP2D6; enzyme activity, inhibitor; human, liver microsomes).
With `CC[C@H](C)[C@H](NC(=O)[C@H](CCCNC(=N)N)NC(=O)[C@H](C)NC(=O)[C@H](CS)NC(=O)[C@H](CCCNC(=N)N)NC(=O)[C@H](CO)NC(=O)CNC(=O)[C@H](C)NC(=O)[C@@H](N)Cc1ccc(O)cc1)C(=O)N[C@@H](Cc1ccccc1)C(=O)N[C@@H](CCCNC(=N)N)C(=O)N[C@@H](CC(C)C)C(=O)N[C@H](C(=O)N[C@@H](CC(C)C)C(=O)N[C@@H](CCC(N)=O)C(=O)N[C@@H](CCCCN)C(=O)O)C(C)C` the IC50 was 9.49 µM (Mitogen-activated protein kinase 14; enzyme activity, inhibitor, fluorescence; pH 7.4).
For `O=C(O)CCn1c(=O)oc2cc(Cl)c(Cl)cc21`, the IC50 was greater than 25.1 µM (5-hydroxytryptamine receptor 2C (HTR2C, Homo sapiens, UniProt P28335); antagonist; median value).
`CC[C@H](C)[C@H](NC(=O)[C@H](Cc1ccc(O)cc1)NC(=O)[C@H](CC(C)C)NC(=O)[C@H](CCCNC(=N)N)NC(=O)[C@H](CCCCN)NC(=O)[C@@H](NC(=O)[C@H](CCCCN)NC(=O)[C@H](CCCCN)NC(=O)[C@H](CCCCN)NC(=O)[C@@H](NC(=O)[C@H](CCC(N)=O)NC(=O)[C@H](Cc1ccccc1)NC(=O)[C@H](C)NC(=O)[C@@H](N)Cc1ccc(O)cc1)[C@@H](C)CC)[C@@H](C)O)C(=O)N[C@@H](CC(N)=O)C(=O)N[C@@H](CCCCN)C(=O)O` has an IC50 of 34.3 µM (Mitogen-activated protein kinase 14; enzyme activity, inhibitor, fluorescence; pH 7.4).
With `O=S(=O)(N/N=C/c1ccc(OS(=O)(=O)c2ccc(Cl)cc2)cc1)c1ccc(Cl)cc1` the IC50 was 0.0567 µM (CA2; enzyme activity, inhibitor, absorbance).

A few entries again:
`CC[C@H](C)[C@H](NC(=O)[C@H](Cc1ccc(O)cc1)NC(=O)[C@H](CC(C)C)NC(=O)[C@H](CCCNC(=N)N)NC(=O)[C@H](CCCCN)NC(=O)[C@@H](NC(=O)[C@H](CCCCN)NC(=O)[C@H](CCCCN)NC(=O)[C@H](CCCCN)NC(=O)[C@@H](NC(=O)[C@H](CCC(N)=O)NC(=O)[C@H](Cc1ccccc1)NC(=O)[C@H](C)NC(=O)[C@@H](N)Cc1ccc(O)cc1)[C@@H](C)CC)[C@@H](C)O)C(=O)N[C@@H](CC(N)=O)C(=O)N[C@@H](CCCCN)C(=O)O` has an IC50 of 34.3 µM (Mitogen-activated protein kinase 14; enzyme activity, inhibitor, fluorescence; pH 7.4).
`O=S(=O)(N/N=C/c1ccc(OS(=O)(=O)c2ccccc2)cc1)c1cc(Cl)ccc1Cl` gave an IC50 of 0.0488 µM (CA2; enzyme activity, inhibitor, absorbance).
The IC50 of `CCN(CC)S(=O)(=O)c1ccc2nnn(OCc3cc(-c4ccccc4OC)no3)c2c1` is reported as greater than 100 µM (CTSL; enzyme activity, inhibitor, FRET).
`CC[C@H](C)[C@H](NC(=O)[C@@H](NC(=O)[C@H](CC(C)C)NC(=O)[C@H](CCCCN)NC(=O)[C@H](CCCCN)NC(=O)[C@H](Cc1c[nH]cn1)NC(=O)[C@@H](NC(=O)[C@H](CCCNC(=N)N)NC(=O)[C@H](CCCCN)NC(=O)[C@H](CC(C)C)NC(=O)[C@H](CCC(N)=O)NC(=O)[C@H](CCCCN)NC(=O)[C@H](C)NC(=O)[C@@H](N)Cc1ccc(O)cc1)[C@@H](C)O)[C@@H](C)O)C(=O)N[C@@H](CC(N)=O)C(=O)N1CCC[C@H]1C(=O)O` gave an IC50 of 36.4 µM (Mitogen-activated protein kinase 14; enzyme activity, inhibitor, fluorescence; pH 7.4).
The IC50 of `CSCC[C@H](NC(=O)[C@@H](NC(=O)[C@H](Cc1c[nH]cn1)NC(=O)CNC(=O)[C@H](Cc1c[nH]cn1)NC(=O)[C@@H]1CCCN1C(=O)[C@H](C)N)C(C)C)C(=O)N[C@H](C(=O)N[C@@H](CCC(=O)O)C(=O)N[C@@H](CC(C)C)C(=O)O)C(C)C` is reported as greater than 70 µM (HLA class I histocompatibility antigen, B alpha chain, allele B*18:01 (Homo sapiens, UniProt P01889); peptide-MHC binding, radioligand competition binding).
